Measurements collected from several papers.
A part holds a random share of what one study measured.

Study 1 — method: RNA Bind-n-Seq; molecule type: RNA; sample: in vitro; concentration: 365 nM; reference: no-protein control; direction: higher = stronger binding
Target: RNA binding protein fox-1 homolog 2, RRM domain, GST-SBP tag (RBFOX2, Homo sapiens, UniProt O43251-10, residues 100-194)
Notes: natural RNA segment, single round, ends assumed
All sequences stand within: GGGAGUUCUACAGUCCGACGAUC … UGGAAUUCUCGGGUGCCAA
Residues (chain): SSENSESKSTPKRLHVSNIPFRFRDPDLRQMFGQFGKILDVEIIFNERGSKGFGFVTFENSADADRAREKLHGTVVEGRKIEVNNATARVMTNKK
| Oligonucleotide | RBNS enrichment (R) |
| --- | --- |
| CACCUCCUGUUUGCCAGGGGGGAAGAACCUAAAGACUUGCUGGGGUAGGAAAUGAGGGCAGACAGGAAGAGAGCAACAUGUCCAGCCCAUAGACUCCACAGAGAAUGGUG | 6.78 |
| UCCUAAUAAGUAGAAUACACUACUGUCAACACCUGACCUUCGUUUUUGUCUUGUGUUGGGGUUAGAGAGAGCAGGAAGGGGGUUCUGACCCUCUUCCCUCCACUGAGUGC | 0.414 |
| ACCCCAGUUAUAUAAUAUAAACUUUGUAAUCUGAGAGAAAAAAUGUAUAGUAAAUCUAAGUCUUGAUUUUUAACUUUCUAUUGUAAAAAAUAAUAAUAUACAGAGUUUAA | 0.79 |
| AAUGAACUUUGAUAAAAUAGAAAUAAUCUACAUUGGCCUUUGUGAAAUCUGGGGAAGAGCUUUAGGAUUCUAGUAGAUGGAUACUGAAUACUCAGGCCCACUUAAAUUAU | 0.561 |
| AGGAAAGGGGGAUGUUUUCCUGGUGUUUGGAUGGUCAGCUGGGAGUGUCCAUCAUCAGGGGAAGAUCAAACACAGGUGCACUCAGCUGCCCAGGGCCUCUGGGACACUUG | 0.507 |
| CUUCAAAUAUUCCAGUAAGUUUUGAAAUAAUGAAUGCAUUGAAAAUAGCAUUGUUGGAAUUUAUUCCCUUCUGUUUUAAAGGAGGUAUUUUGGAAAUUGAAAAACUUAAU | 2.05 |
| AUCUUUGCACAUGUGACCAUGCUGUGUUAGGGGCUGUGUUCCAGGGACUGGACUCGAAGCUAGAACUGGCAGAAGAGUUCUGGCAUCCACAGCGCAAUGCUGCCACCACC | 0.801 |
| UGGUCGUACACUGCUCAUUGUGCCACAGGUGUGACUGGAAAGCAUGAUAUUCUAGGGUUGGUUUGUAGAUUCAAAUAAUCCAGAAAUAUACCUAAUAAGAUUGAGUGAAA | 9.03 |
| ACUGUUCUGCGUUGGAACAGAUGGAGUGAGAAACCCUACAGCCUGCCCGAACCCAGACUCUCCCCCAAAGCCAAGACCUCCUAUGCAAUAAUGCCCCCCUCCAACCCCAC | 1.69 |
| CCUCAUCACCUCAUGGCCAAUUUGCACUUUGCCAGACUGGAUGGAAUAGAGAAGGGUCCUGUGGAGUUCCAGGCCCUGGCUGCAAUGCUCCACACACACACACACCCCUC | 0.636 |
| UCUGUUUGAAGAGCAUCAUUGCUAACUAGCAUGAAGCAGAGGGCAAUGAUGCCUGUAAAUAUGAAAAUGUGCCUGUAAGAGUAACAGGUAUCGCUGGGCAGUGGUGGCAC | 3.61 |
| GGACACUGGCCUCUUAGUGCCCGGCUGCCGAGCUCUUGGCCUUGUCCCCUGGGGCAUCUCUGUCCCCUCCACCUGCCCAAGACCCAACUCUAGGAUGAAGGCCUUGAAUA | 0.279 |

Study 2 — method: RNA Bind-n-Seq; molecule type: RNA; sample: in vitro; concentration: 1 µM; notes: whole 134-nt RNA, ends assumed; with: 150 mM KCl; reference: input library; direction: higher = stronger binding
Target: Ras GTPase-activating protein-binding protein 1, RRM domain (G3BP1, Homo sapiens, UniProt Q13283)
Sequence of UniProt Q13283 (whole entry, looked up): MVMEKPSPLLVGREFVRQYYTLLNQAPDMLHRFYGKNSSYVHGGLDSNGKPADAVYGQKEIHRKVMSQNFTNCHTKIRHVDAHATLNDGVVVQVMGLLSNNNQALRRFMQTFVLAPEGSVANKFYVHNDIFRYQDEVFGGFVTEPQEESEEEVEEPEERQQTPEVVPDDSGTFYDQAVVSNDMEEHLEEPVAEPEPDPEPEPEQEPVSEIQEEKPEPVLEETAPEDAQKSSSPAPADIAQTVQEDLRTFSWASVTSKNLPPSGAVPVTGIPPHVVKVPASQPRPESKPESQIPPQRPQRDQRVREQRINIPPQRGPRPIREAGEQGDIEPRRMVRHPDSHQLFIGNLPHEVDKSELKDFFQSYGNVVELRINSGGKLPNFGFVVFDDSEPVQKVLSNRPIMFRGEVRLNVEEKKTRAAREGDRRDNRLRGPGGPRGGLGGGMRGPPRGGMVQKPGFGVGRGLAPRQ
All sequences stand within: GGGAGUUCUACAGUCCGACGAUC … UGGAAUUCUCGGGUGUCAAGG
| Oligonucleotide | log2 enrichment |
| --- | --- |
| UGGAAGGUGGAUUUUGUUUAUUUUUUUAGCUCAUUUCCAGGGGUGGGAAUUUUUUUUUAAUAUGUGUCAUGAAUAAAGUUGUUUUUGAAA | 1.72 |
| CCUCAAGUCCUGUGCUACACAUCGUAUGUACCGAAUCGGAAAAAGGUGGAGGAAAGUAUUAUGUUACGCCGUUCGGAUCUGCACUUCCAG | -0.0744 |
| UGUGCUACACAUCGUAUGUACCGAAUCGGGGCCCCCCCGGGCCCCCCCGGGGCCCCCCCGGGAAAGUAUUAUGUUACGCCGUUCGGAUCU | -0.689 |
| ACCAUGCAGGUGGGCAUCUUUGGGAAGUGGGGCAAGGGGGGGAUAGGGAGGGGGGUAACACUUUGGGAACAGGUGGUCACAGGUCGUUUC | 0.902 |
| CUCAAGUCCUGUGCUACACAUCGUAUGUACCGAAUCGGUUUGGGUUUGGUUUGGAAAGUAUUAUGUUACGCCGUUCGGAUCUGCACUUCC | -0.228 |
| GUCCUGUGCUACACAUCGUAUGUACCGAAUCGGGCCCCCGGGCCCCCGGGGCCCCCGGAAAGUAUUAUGUUACGCCGUUCGGAUCUGCAC | -0.842 |
| CUGUGCUACACAUCGUAUGUACCGAAUCGGGGUUUUUUUGGGGUUUUUUUGGGGAAAGGGGAAAGUAUUAUGUUACGCCGUUCGGAUCUG | 0.483 |
| AAGUCCUGUGCUACACAUCGUAUGUACCGAAUCGGGCCCCGGGGCCCCGGGCCCCGGAAAGUAUUAUGUUACGCCGUUCGGAUCUGCACU | -0.605 |
| GCAGGAAGUAAAAACAAAUGGAAAUGCUUCGGAUAGUGGCAGGGGUGGGGGUUGCUAAGGAAAGGGUGGGAUGGGAGUGGGCAAAGAGUU | 0.763 |
| CCUGUGCUACACAUCGUAUGUACCGAAUCGGGAAAAAAAGGAAAAAAAGGAAAAAAAGGGAAAGUAUUAUGUUACGCCGUUCGGAUCUGC | 0.0919 |

Study 3 — method: RNA Bind-n-Seq; molecule type: RNA; sample: in vitro; concentration: 20 nM; notes: 6-mer, flanks averaged, single round; with: 150 mM LiCl; reference: input library; direction: higher = stronger binding
Target: TAR DNA-binding protein 43, full length, His tag (TARDBP, Homo sapiens, UniProt Q13148, residues 1-414)
| Oligonucleotide | 6-mer enrichment (R) |
| --- | --- |
| UCCAGC | 0.924 |
| UCGUAU | 0.924 |
| AAAGAU | 0.803 |
| UAUAGA | 0.909 |
| CAUGAU | 0.859 |
| GGUGGA | 1.28 |
| UACAUC | 0.827 |
| CGCAUG | 0.991 |
| UGCCGC | 0.981 |
| AAGGAC | 0.873 |
| UCUCGG | 0.894 |
| CAGCGA | 0.881 |
| CCCAAU | 1.01 |
| GGACGC | 0.992 |
| CGGGAA | 0.959 |
| GCGUGC | 1.13 |
| UCUGGC | 0.899 |
| UACGUG | 1.03 |
| AUAGUC | 0.85 |
| GGAGCU | 0.983 |
| UGGAUU | 0.946 |

Study 4 — method: protein binding microarray; molecule type: double-stranded DNA, one strand shown; sample: in vitro; concentration: not given; reference: not given; direction: higher = stronger binding
Target: Histone acetyltransferase KAT6A, winged helix 2, GST fusion (KAT6A, Homo sapiens, UniProt Q92794, residues 85-181)
Notes: 8-mer, flanks averaged, mean of 2 arrays, mostly near background
Residues (chain): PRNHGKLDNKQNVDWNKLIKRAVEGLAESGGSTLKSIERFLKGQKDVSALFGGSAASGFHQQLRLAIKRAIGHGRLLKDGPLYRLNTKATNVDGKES
| Oligonucleotide | E-score |
| --- | --- |
| CTTTATAC | -0.0302 |
| AGTTTTGC | 0.056 |
| AACCTCTG | -0.0339 |
| ACAATCAC | -0.0358 |
| AGAATGAC | -0.159 |
| AAGCACTC | 0.0275 |
| AGGCAGAT | 0.0675 |
| TAGACAGA | 0.115 |
| CAAGTTTC | -0.0441 |
| AATCTCTC | -0.034 |
| GTGCTCCA | 0.0849 |
| GATGCGAA | 0.00518 |
| TGGTAACA | 0.0654 |
| CTATCGGC | -0.0593 |
| GATGGTGA | -0.0843 |
| GCGAACCA | 0.0397 |
| CGCAAGAC | -0.0233 |
| CTGCTTGA | 0.05 |
| AGATGTAC | -0.149 |
| ACGTGCTG | -0.0275 |

Some of these lines once more (study 4):
| Oligonucleotide | E-score |
| --- | --- |
| AGGCAGAT | 0.0675 |
| TAGACAGA | 0.115 |
| CAAGTTTC | -0.0441 |
| AATCTCTC | -0.034 |
| GTGCTCCA | 0.0849 |
| GATGCGAA | 0.00518 |
| TGGTAACA | 0.0654 |
| CTATCGGC | -0.0593 |
| GATGGTGA | -0.0843 |
